Measurements collected from several papers.
Each line is one published result; not all experiments were run side by side. “And” joins repeats or separate records; there may be more than shown. Converted amounts (≈) assume the structure as drawn.
Organism: Staphylococcus aureus

| Compound | assay | system | setting | scale | endpoint | value |
| --- | --- | --- | --- | --- | --- | --- |
| CC(C)CCCCCCCCC/C=C/C(=O)N[C@@H](CC(=O)O)C(=O)N[C@H]1CNC(=O)[C@@H]2CCCN2C(=O)[C@H](C(C)C)NC(=O)[C@@H](CN)NC(=O)CNC(=O)[C@H](CC(=O)O)NC(=O)CNC(=O)[C@H](CC(=O)O)NC(=O)[C@H](CC(=O)O)NC(=O)[C@H]2CCCCN2C1=O | broth microdilution | VISA LIM strain 2, Mueller-Hinton broth, Mg2+ 10 mg/L | 16 h, with: Ca2+ 5 mM |  | MIC | 2 µg/mL (≈ 1.57 µM) |
| CC1C=CC=CC(C)C2C=CC3CC(C)(O)C(Cl)C(C)C3C2C(=O)C(Cl)(Cl)C(=O)C(C)C(=O)O1 (centres unmarked) |  | MSSA clinical isolate | no listed resistance |  | MIC | 0.025 µg/mL (≈ 0.047 µM) |
| C=C(NC(=O)c1csc(-c2nc3c(cc2O)-c2nc(cs2)C(=O)NC(C(C)O)C(=O)NC(=C(C)OC)c2nc(cs2)C(=O)NC2c4nc(cs4)C(=O)NC(COC(=O)c4c5c6c(cccc6n4O)COC(=O)C(OC4CC(C)(O)C(N(C)C)C(C)O4)C2OC5)c2nc-3cs2)n1)C(N)=O (centres unmarked) |  | MRSA strain 5, vancomycin-induced | 20 generations |  | MIC | 0.0156 µg/mL (≈ 0.0109 µM) |
| OB(O)c1ccc(C(F)(F)F)s1 |  | USA300 wild type | 5 µM | reference: untreated | growth relative to untreated | 100% and 85.2% and 77.3% and 75.4% and 73.5% and 86.9% |
| C[C@@H]1C(=O)O[C@@H](C)/C=C/C=C\[C@@H](C)[C@@H]2C=C[C@@H]3C[C@@]4(C)O[C@H]4[C@@H](C)[C@H]3[C@@H]2C(=O)C(Cl)(Cl)C1=O |  | MSSA clinical isolate, susceptible |  |  | MIC | 0.025 µg/mL (≈ 0.0505 µM) |
| CC[C@H](C)[C@@H]1NC(=O)[C@@H]([C@@H](C)O)NC(=O)CNC(=O)[C@H](CC(=O)O)NC(=O)CNC(=O)[C@H](CC(=O)O)NC(=O)CNC(=O)[C@H]2CCCCN2C(=O)[C@@H](NC(=O)[C@H](CC(=O)O)NC(=O)/C=C/CCCCCCCCCC(C)C)CNC(=O)[C@@H]2CCCN2C1=O | broth microdilution | BR-VRSA strain 880, Mueller-Hinton broth, Mg2+ 10 mg/L | 16 h, with: Ca2+ 1.0 mM |  | MIC | 4 µg/mL (≈ 3.21 µM) |
| c1ccc(CCNC2CCCc3c2[nH]c2ccc(C4CCCCC4)cc32)cc1 (centres unmarked) | broth microdilution | SA113 ΔtarO |  |  | MIC | 4 µg/mL (≈ 10.7 µM) |
| CCCCCCCCCCCCCC(=O)N[C@H]1C(=O)N[C@@H](CN)C(=O)N[C@@H](CO)C(=O)N[C@@H](Cc2ccc(O)cc2)C(=O)O[C@H]1C |  | SH1000 | with: cardiolipin, molar ratio 2 |  | MIC | > 32 µg/mL |

Excerpt of the above:
| Compound | assay | system | setting | scale | endpoint | value |
| --- | --- | --- | --- | --- | --- | --- |
| C[C@@H]1C(=O)O[C@@H](C)/C=C/C=C\[C@@H](C)[C@@H]2C=C[C@@H]3C[C@@]4(C)O[C@H]4[C@@H](C)[C@H]3[C@@H]2C(=O)C(Cl)(Cl)C1=O |  | MSSA clinical isolate, susceptible |  |  | MIC | 0.025 µg/mL (≈ 0.0505 µM) |
